Experimental data from different studies.
Lines come from different studies, so protocols differ.
Technique: steady-state kinetics
B1: enzyme (Escherichia coli, UniProt P0AG07); chain MKQYLIAPSILSADFARLGEDTAKALAAGADVVHFDVMDNHYVPNLTIGPMVLKSLRNYGITAPIDVHLMVKPVDRIVPDFAAAGASIITFHPEASEHVDRTLQLIKENGCKAGLVFNPATPLSYLDYVMDKLDVILLMSVNPGFGGQSFIPQTLDKLREVRRRIDESGFDIRLEVDGGVKVNNIGEIAAAGADMFVAGSAIFDQPDYKKVIDEMRSELAKVSHE
B2: enzyme (Spiroplasma melliferum, UniProt A0ABF7PLM3); chain MDNFDNYEQVASIKVIGIGGAGNNAVNRMIEAGVQGVEFIVANTDAQIISVSKSKNKIVLGKETSKGLGAGANPDVGRQAAIESAEEIKDALKGADMVFVAAGMGGGTGTGAAPIIAKLAREQGALTVGIITTPFSFEGRARNSYAIQGTEELRKHVDSLIIISNDRLLEVIGGVPLKDSFKEADNILRQGVQTITDLIAVPSLINLDFADIKTVMKNKGNALFGIGIGSGKDKAIEAANKAIISPLLEASIRGARDAIINVTGGNTLTLNDANDAVDIVKQAIGGEVNIIFGTAVNEHLDDEMIVTVIATGFDEEQNFTNPDNTYRASMEEYEAPAPRPTRDAEINDDNNDQDIARKRPSYFTNLSENSERETANANRRINAWREHVNNNQVVEHDDEDDDLPPFVRRSW
B3: enzyme H476A (Methanosarcina mazei, UniProt Q8PVB1); chain MSEQRSVPLREHLLALKPCRHGGLIQETSETYGIPENEILDFSANFNPLGSPFDYPENGLNFEDIIKKSCGKLLEYPDNRYVEFREAAARFVGLGVTPQSIVPGNGSTEIVRLVVESVIEKGDKVLLPWPTFGEYEMQCRITGAEPVCPSQEEVNTLPDEVLEEAKILFICNPNNPTGKLRTREELKVLAERCREHKTLLYVDEAFIELSDPSQSVADLPAENNYVFVMRSLTKDFAIPGIRMGFGIAPPAMADILNTARLSWNLGAIANNTGIALLNIEGGIDSPYLKKAREMILKEGETLKAKIDRIRGFEAGEVNVNFILVDVSKFMLNSSELTARLAARGVLVRDCVSFHGLGKNYIRVAVRTEKENDRLIAAIGDVITEWGREQAKNELQHVIEKASEEGIGGRKTCEYYPCHFEGQNCTFCFCPFYPCENEKTGGKWIQSSRGGRVWSCVDCHLVHKKEIAQKILDCLMAEGDTDELVKVAWKEVMEPIL
B4: ST3GAL1 K315V (Sus scrofa, UniProt Q02745); chain ELSENFKKLMKYPYRPCTCTRCIEEQRVSAWFDERFNRSMQPLLTAKNAHLEEDTYKWWLRLQREKQPNNLNDTIRELFQVVPGNVDPLLEKRLVSCRRCAVVGNSGNLKESYYGPQIDSHDFVLRMNKAPTEGFEADVGSKTTHHFVYPESFRELAQEVSMILVPFKTTDLEWVISATTTGRISHTYVPVPAKIKVKKEKILIYHPAFIKYVFDRWLQGHGRYPSTGILSVIFSLHICDEVDLYGFGADSKGNWHHYWENNPSAGAFRVTGVHDGDFESNVTTILASINKIRIFKGR
B5: SCO6712 (Streptomyces coelicolor, UniProt Q9XAL8); chain AKGITARTAPAGGEVRHLKMYAEKLADGQMGYGFEKGKASVPGPLIEVNEGDTLHIEFTNTMDVRASLHVHGLDYEISSDGTAMNKSDVEPGGTRTYTWRTHKPGRRDDGTWRPGSAGYWHYHDHVVGTEHGTGGIRNGLYGPVIVRRKGDVLPDATHTIVFNDMTINNRKPHTGPDFEATVGDRVEIVMITHGEYYHTFHMHGHRWADNRTGILTGPDDPSRVIDNKITGPADSFGFQIIAGEGVGAGAWMYHCHVQSHSDMGMVGLFLVKKPDGTIPGYEPHEHGGATAKSGESGEPTGGAAAHEHEH
B6: enzyme M350A/M389A (Pediococcus pentosaceus, UniProt A0AB73HHR8); chain MKNYTDYFFDEQAFDLHDGGYVPLEVSDAPEKPLNVPPLLKPDKETATDVYYTVTAEAGETQLLPGAKTKTWGYNTSLLGQTIVYRRGQHTHVTLKNTLPELTTFHWHGANVSGPYVDGGCHAPVYPGESKHIDFTLEQPATTLWLHAHPCPSTAEQVWHGLAAMVIVKDDHEASLPLPRNYGVDDIPVILQDRRFHENNQWDYRADYDPDGVAGPTAMINGTINPYFDVTTQKVRLRFLDGANRREWRLHFSDDLPFTQIGGDGSLLPEPVKFTHLMLTCAERAEVIVDFGQYHEGDEVTLYTDDVPLLKFRIHAFKPDQTTLPDKLFDVKAPVVDPALPVRHVVMQGADEGVAIDGKKFAMQRIDATQPIGKAQYWDVTNSNDAPGAVHPFHVHGTQFLVLSRNGHAPYPNEHGFKDTIGVNPGETVRLLVRFDLPGVYMYHCHIIEHEDGGMMAQIETFDPAKPKQEYKLMDMDTLMMALAKERGVKPSEIWMGGMQSYEKMGMKM
B7: enzyme W53F (Thermoplasma volcanium, UniProt Q978S7); chain MAFHGLVKYSDITVEGYPKIQYHGFIGNNRTAMLVAMNGYIDFGCLPNFNSNAVFSSILDKNKGGYFAIFPSDTTDVYVDQYYKEMTNVLVTEFVKNGKIILRLTDFMPDSEYGKISFPEVHRFVESFSEPIDITIDFKPTFNYGQDKPIIEKDQHGFIFTTDKESIGISSEFPLRKNSDRIFGNVKMEPRSSSWIIALYGIHHLFRTTDYKSYLRLQETTDYWRKWASSSSYAGAYHSMVMRSALALKVLFYEPTGLMVAAPTASLPEAIGGERNWDYRFTWIRDTAYVIEALSSIGYKYEATEFLYDMMDMITRDNRIRTIYSIDDSNDLEERIIDYEGYRGSRPVRIGNKAVDQLQIDQYGSIVRAIHSMAKAGGIVNSYLWDFVEQVMAKIEYLWKYPDSSIWEFRTEPKQYVYSKVMSWAAFDSAISMAKDLGLSAPIKQWKSIQDEIKKEVLEKGFDTDTNSFVQYYGSKNIDAALLRLPILGFIPANDEKFLGTLSRIEKELMVDGYLFKRYREDDGLKGDEGSFLMLTFWYIEDLILMKRLKKAREVLESVLEKANHLGLYSEEIDEKSGDFLGNFPQALSHLGVIRVAPKLEEALLKRTSKINS
B8: enzyme (Staphylococcus aureus, UniProt A0A0H2XHR6); chain MQKSALFAPEKYNIISEIEKYSHIPDKKAILYHNTEGEDISVTYQQLIEQSNKVGNVLASHGLSKGDKVLIMMPRSIATYELYIAALKLGVAIIPCSEMLRTKDLQYRITHGEINAVIALEPFTVEFEKIKEYDALTKFVIAGQKDGWISLEAEKENASNKLEMADTTRDDMAILSYTSGTTGNPKAVTHCHGWGFAHLQMAPKHWLCINEDDLVWATAAPGWQKWVWSPFLSVLGSGATAFVFNGRFSPETYLELLQKYQINVLCCTPTEYRMMAKLQNLNDYDLTHLHSAVSAGEPLNREVVEQFKKYFNLTVRDGYGQTESTLLIGFLKDTPQRIGSMGKGIPGSSVTVVDDEGNSVPANTKGNIAVPLDLPALFKGYYKEPERTAKAQTGKYYITGDLAHVDDDGYFWFEGRRDDIIISSGYTIGPFEVEDALTNHPAVKECAVVAKPHDIRGNIVKAFVILQDHTAGDDTLVKELQQFVKNEVAPYKYPREIEFVDDLPKTNSGKIRRVELRDAEIEKWQQQKDSNQ
B9: aspC A106G/A218G/F210I/I29V/I33V/I68L/I71L/N30D/N64T/S135A/T100S/V136I/V375I (Escherichia coli, UniProt P00509); chain MFENITAAPADPILGLADLFRADERPGKVDLGVGVYKDETGKTPVLTSVKKAEQYLLENETTKTYLGLDGLPEFGRCTQELLFGKGSALINDKRARTAQSPGGTGGLRVAADFLAKNTSVKRVWVSNPSWPNHKAIFNSAGLEVREYAYYDAENHTLDFDALINSLNEAQAGDVVLFHGCCHNPTGIDPTLEQWQTLAQLSVEKGWLPLIDFAYQGFGRGLEEDAEGLRAFAAMHKELIVASSYSKNFGLYNERVGACTLVAADSETVDRAFSQMKAAIRANYSNPPAHGASVVATILSNDALRAIWEQELTDMRQRIQRMRQLFVNTLQEKGANRDFSFIIKQNGMFSFSGLTKEQVLRLREEFGVYAVASGRINVAGMTPDNMAPLCEAIVAVL
B10: enzyme (Homo sapiens, UniProt P50583); chain ALRACGLIIFRRCLIPKVDNNAIEFLLLQASDGIHHWTPPKGHVEPGEDDLETALRETQEEAGIEAGQLTIIEGFKRELNYVARNKPKTVIYWLAEVKDYDVEIRLSHEHQAYRWLGLEEACQLAQFKEMKAALQEGHQFLCSIEA
B11: FDH1 (Arabidopsis thaliana, UniProt Q9S7E4); chain SSGDSKKIVGVFYKANEYATKNPNFLGCVENALGIRDWLESQGHQYIVTDDKEGPDCELEKHIPDLHVLISTPFHPAYVTAERIKKAKNLKLLLTAGIGSDHIDLQAAAAAGLTVAEVTGSNVVSVAEDELMRILILMRNFVPGYNQVVKGEWNVAGIAYRAYDLEGKTIGTVGAGRIGKLLLQRLKPFGCNLLYHDRLQMAPELEKETGAKFVEDLNEMLPKCDVIVINMPLTEKTRGMFNKELIGKLKKGVLIVNNARGAIMERQAVVDAVESGHIGGYSGDVWDPQPAPKDHPWRYMPNQAMTPHTSGTTIDAQLRYAAGTKDMLERYFKGEDFPTENYIVKDGELAPQYR
B12: enzyme (Azotobacter vinelandii, UniProt C1DN94); chain MSESPLRLDRLRDFVSALGELLDRHPDEESVLREGRSLLGELVRHDDWLPEEFAQPDPERYQQYLLHADSRQRFSVVSFVWGPGQTTPVHDHRVWGLIGMLRGAEDAQSFELGAEGLRPIGDPVRLSPGQVEAVSPRIGDIHRVFNASPDQPSISIHVYGANIGAVRRAVYLPDGSEKPFISGYSNQFLPNIWDQSKESARP
B13: enzyme F206A/H226Y (Oryctolagus cuniculus, UniProt P00178); chain GRLPPGPSPLPVLGNLLQMDRKGLLRSFLRLREKYGDVFTVYLGSRPVVVLCGTDAIREALVDQAEAFSGRGKIAVVDPIFQGYGVIFANGERWRALRRFSLATMRDFGMGKRSVEERIQEEARCLVEELRKSKGALLDNTLLFHSITSNIICSIVFGKRFDYKDPVFLRLLDLFFQSASLISSFSSQVFELFPGFLKYFPGTHRQIYRNLQEINTFIGQSVEKHRATLDPSNPRDFIDVYLLRMEKDKSDPSSEFHHQNLILTVLSLFFAGTETTSTTLRYGFLLMLKYPHVTERVQKEIEQVIGSHRPPALDDRAKMPYTDAVIHEIQRLGDLIPFGVPHTVTKDTQFRGYVIPKNTEVFPVLSSALHDPRYFETPNTFNPGHFLDANGALKRNEGFMPFSLGKRICLGEGIARTELFLFFTTILQNFSIASPVPPEDIDLTPRESGVGNVPPSYQIRFLAR
Sequence of UniProt P09546 (whole entry, looked up): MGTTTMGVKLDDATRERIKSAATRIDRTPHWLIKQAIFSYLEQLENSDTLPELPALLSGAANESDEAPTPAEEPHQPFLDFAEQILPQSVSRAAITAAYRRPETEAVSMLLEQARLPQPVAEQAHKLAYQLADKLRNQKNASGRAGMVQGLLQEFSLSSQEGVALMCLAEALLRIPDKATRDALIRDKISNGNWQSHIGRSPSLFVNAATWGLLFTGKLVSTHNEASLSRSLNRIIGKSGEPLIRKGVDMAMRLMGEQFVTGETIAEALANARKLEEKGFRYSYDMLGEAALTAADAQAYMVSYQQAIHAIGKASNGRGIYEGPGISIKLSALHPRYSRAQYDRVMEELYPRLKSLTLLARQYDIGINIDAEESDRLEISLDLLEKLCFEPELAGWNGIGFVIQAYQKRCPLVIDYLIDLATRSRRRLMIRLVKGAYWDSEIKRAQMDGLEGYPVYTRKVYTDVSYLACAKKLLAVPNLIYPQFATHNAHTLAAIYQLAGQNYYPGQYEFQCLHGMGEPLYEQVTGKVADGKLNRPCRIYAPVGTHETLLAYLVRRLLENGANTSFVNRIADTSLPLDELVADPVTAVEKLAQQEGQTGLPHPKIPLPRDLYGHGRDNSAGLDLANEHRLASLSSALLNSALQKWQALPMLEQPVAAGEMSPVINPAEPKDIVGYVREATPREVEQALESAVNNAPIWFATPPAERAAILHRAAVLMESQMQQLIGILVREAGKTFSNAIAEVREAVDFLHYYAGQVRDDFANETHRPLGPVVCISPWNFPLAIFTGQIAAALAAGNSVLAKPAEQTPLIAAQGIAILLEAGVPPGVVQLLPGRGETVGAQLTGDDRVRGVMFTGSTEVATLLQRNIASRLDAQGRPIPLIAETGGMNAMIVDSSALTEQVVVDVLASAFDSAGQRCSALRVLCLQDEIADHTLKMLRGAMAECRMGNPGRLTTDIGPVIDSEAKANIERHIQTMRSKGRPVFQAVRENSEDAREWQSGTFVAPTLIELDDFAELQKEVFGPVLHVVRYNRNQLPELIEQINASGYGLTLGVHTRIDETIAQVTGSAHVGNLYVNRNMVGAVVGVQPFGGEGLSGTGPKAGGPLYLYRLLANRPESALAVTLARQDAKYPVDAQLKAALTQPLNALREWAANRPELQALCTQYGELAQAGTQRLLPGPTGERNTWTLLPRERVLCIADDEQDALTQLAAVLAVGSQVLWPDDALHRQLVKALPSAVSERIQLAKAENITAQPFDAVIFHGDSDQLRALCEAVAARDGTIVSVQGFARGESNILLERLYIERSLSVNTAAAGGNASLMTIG
Sequence of UniProt P35503 (whole entry, looked up): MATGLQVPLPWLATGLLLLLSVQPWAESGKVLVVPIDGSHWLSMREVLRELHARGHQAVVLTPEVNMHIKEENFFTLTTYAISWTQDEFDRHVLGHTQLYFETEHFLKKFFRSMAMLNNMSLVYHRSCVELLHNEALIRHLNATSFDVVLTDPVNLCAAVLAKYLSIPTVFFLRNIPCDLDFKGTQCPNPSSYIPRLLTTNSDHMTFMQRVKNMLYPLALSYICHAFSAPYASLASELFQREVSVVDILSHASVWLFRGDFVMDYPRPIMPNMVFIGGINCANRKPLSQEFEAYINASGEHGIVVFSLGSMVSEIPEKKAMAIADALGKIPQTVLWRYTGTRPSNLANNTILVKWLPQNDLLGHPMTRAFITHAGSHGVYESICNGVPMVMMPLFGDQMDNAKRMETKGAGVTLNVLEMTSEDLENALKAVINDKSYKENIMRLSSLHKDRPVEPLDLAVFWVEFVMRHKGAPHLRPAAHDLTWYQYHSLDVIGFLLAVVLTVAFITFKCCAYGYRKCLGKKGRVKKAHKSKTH
Sequence of UniProt Q9R7D7 (whole entry, looked up): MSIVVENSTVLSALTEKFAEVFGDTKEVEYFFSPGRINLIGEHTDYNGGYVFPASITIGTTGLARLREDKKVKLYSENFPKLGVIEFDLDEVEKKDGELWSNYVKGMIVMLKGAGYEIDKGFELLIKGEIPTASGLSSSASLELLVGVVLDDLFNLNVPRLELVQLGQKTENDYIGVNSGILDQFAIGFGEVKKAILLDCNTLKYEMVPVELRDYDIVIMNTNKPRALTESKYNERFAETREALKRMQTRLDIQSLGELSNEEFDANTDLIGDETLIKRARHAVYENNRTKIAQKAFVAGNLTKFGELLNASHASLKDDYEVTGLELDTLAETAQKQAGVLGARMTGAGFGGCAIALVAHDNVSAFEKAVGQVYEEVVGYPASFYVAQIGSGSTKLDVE
Sequence of UniProt P0A9Q9 (whole entry, looked up): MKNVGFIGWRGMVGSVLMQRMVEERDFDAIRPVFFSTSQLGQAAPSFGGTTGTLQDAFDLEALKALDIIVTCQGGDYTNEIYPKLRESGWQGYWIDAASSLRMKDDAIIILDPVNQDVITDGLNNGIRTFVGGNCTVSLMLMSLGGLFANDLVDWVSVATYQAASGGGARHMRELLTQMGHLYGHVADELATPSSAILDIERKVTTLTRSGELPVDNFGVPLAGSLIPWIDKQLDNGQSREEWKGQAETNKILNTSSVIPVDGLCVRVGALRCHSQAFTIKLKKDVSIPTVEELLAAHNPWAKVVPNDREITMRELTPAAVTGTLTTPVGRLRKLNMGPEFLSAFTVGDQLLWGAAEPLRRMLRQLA

Substance | substrate | conditions | Km
B1 (enzyme) | O=C(CO)[C@H](O)[C@H](O)COP(=O)(O)O | pH 8.8, 25 °C | 1600 µM
enzyme (Trichoderma guizhouense, UniProt A0A1T3CAM5) | C[C@H](N)C(=O)N[C@@H](C[C@@H]1CCC(=O)[C@@H]2O[C@H]12)C(=O)O | 18 °C, not purified | 270 µM
B2 (enzyme) | Nc1nc2c(ncn2[C@@H]2O[C@H](COP(=O)(O)OP(=O)(O)OP(=O)(O)O)[C@@H](O)[C@H]2O)c(=O)[nH]1 | pH 6.5, 30 °C, added: MgCl2 5 mM | 234 µM
B3 (enzyme H476A) | Nc1ncnc2c1ncn2[C@@H]1O[C@H](COP(=O)(O)OP(=O)(O)OP(=O)(O)O)[C@@H](O)[C@H]1O | pH 8.5, 25 °C, apparent, anoxic, added: L-Thr 10 mM | 108 µM
B4 (ST3GAL1 K315V) | CC(=O)N[C@H]1[C@H]([C@H](O)[C@H](O)CO)O[C@](OP(=O)(O)OC[C@H]2O[C@@H](n3ccc(N)nc3=O)[C@H](O)[C@@H]2O)(C(=O)O)C[C@@H]1O | – | 38.8 µM
B5 (SCO6712) | CCn1c(=NN=c2sc3cc(S(=O)(=O)O)ccc3n2CC)sc2cc(S(=O)(=O)O)ccc21 | pH 7, 37 °C, NaCl 150 mM, added: O2 cosubstrate | 4400 µM
asd (Escherichia coli, UniProt P0A9Q9) | N[C@@H](CCC=O)C(=O)O | pH 7.6, apparent, added: 1 mM NADP+ | 310 µM
B6 (enzyme M350A/M389A) | CCn1c(=NN=c2sc3cc(S(=O)(=O)O)ccc3n2CC)sc2cc(S(=O)(=O)O)ccc21 | pH 3.7, 24 °C | 90 µM
UGT1A3 (Homo sapiens, UniProt P35503) | O=c1cc(C(F)(F)F)c2ccc(O)cc2o1 | 37 °C, not purified | 58 µM
B7 (enzyme W53F) | OC[C@H]1O[C@H](O[C@H]2O[C@H](CO)[C@@H](O)[C@H](O)[C@H]2O)[C@H](O)[C@@H](O)[C@@H]1O | pH 3.7, 30 °C | 66500 µM
B8 (enzyme) | CC(C)C(=O)O | pH 7.5, 37 °C | 8.9 µM
B9 | N[C@@H](CC(=O)O)C(=O)O | pH 7.5, 25 °C, added: PLP 20 µM | 1200 µM
B10 (enzyme) | Nc1ncnc2c1ncn2[C@@H]1O[C@H](COP(=O)(O)OP(=O)(O)OP(=O)(O)OP(=O)(O)OP(=O)(O)OC[C@H]2O[C@@H](n3cnc4c(N)ncnc43)[C@H](O)[C@@H]2O)[C@@H](O)[C@H]1O | added: Mg2+ | 33 µM
B11 (FDH1) | O=CO | pH 7.5, 30 °C | 4110 µM
enzyme (Lactococcus lactis, UniProt Q9R7D7) | Nc1ncnc2c1ncn2[C@@H]1O[C@H](COP(=O)(O)OP(=O)(O)OP(=O)(O)O)[C@@H](O)[C@H]1O | pH 8, 24 °C | 53 µM
enzyme (UniProt F0RRL2) | O=P(O)(O)O | pH 5.5, 37 °C, apparent | 2200 µM
B12 (enzyme) | NCCS | pH 8, 25 °C, added: O2 | 26000 µM
B13 (enzyme F206A/H226Y) | CCOc1ccc2c(C(F)(F)F)cc(=O)oc2c1 | 37 °C, added: 7-EFC | 58.5 µM
enzyme (Ectocarpus siliculosus, UniProt D7FYY3) | C=C(OP(=O)(O)O)C(=O)O | pH 5.5, 25 °C, added: 2 mM ADP | 620 µM
putA (Escherichia coli, UniProt P09546) | COC1=C(OC)C(=O)C(C/C=C(\C)CCC=C(C)C)=C(C)C1=O | pH 7.4, 20 °C, added: proline 200 mM | 16 µM
